# Published values pooled from the literature.
# A part holds a random share of what one study measured. Changes are numbered by the printed parent chain.

# Study 1
# Target: Prothrombin, mature alpha-thrombin (F2, Homo sapiens, UniProt P00734)
# Method: aptamer microarray, sandwich
# Molecule type: DNA with 2'F-ANA
# Matrix: in vitro
# Concentration: 200 nM
# Setting: whole 15-mer aptamer, many near background
# Added: Cy3 exosite-II aptamer, 400 nM
# Reading: higher = stronger binding
# Strand: GGTTGGTGTGGTTGG
Modification,mean fluorescence intensity [a.u.]
2'F-ANA at 1 2 3 5 8 9 10 12 13 14,48.8
2'F-ANA at 1 4 5 6 8 9 10 11 12 13 15,61.9
2'F-ANA at 2 6 9 13,259
2'F-ANA at 1 3 4 5 7 8 9 11 13,50.6
2'F-ANA at 3 4 6 8 10 11 12,327
2'F-ANA at 1 2 3 5 9 12 13,83.9

# Study 2
# Target: RNA binding protein fox-1 homolog 2, RRM domain, GST-SBP tag (RBFOX2, Homo sapiens, UniProt O43251-10, residues 100-194)
# Method: RNA Bind-n-Seq
# Molecule type: RNA
# Matrix: in vitro
# Concentration: 365 nM
# Setting: natural RNA segment, single round, ends assumed
# Relative to: no-protein control
# Reading: higher = stronger binding
# Constant ends, left off below: GGGAGUUCUACAGUCCGACGAUC … UGGAAUUCUCGGGUGCCAA
# Residues (chain): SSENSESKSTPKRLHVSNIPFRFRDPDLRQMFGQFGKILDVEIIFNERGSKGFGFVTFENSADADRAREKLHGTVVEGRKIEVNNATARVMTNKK
Strand,RBNS enrichment (R)
AAAACCAGUAACAAACACAAAGGAAUUCAGGGUCGCUUUGCUUGCUCUCUGUGCUCCGUGGAGGCCUCCGUGUGCCCUCGUUGCCGUGGGGACCCAGCUCCAUGCACGUC,2.08
UCAAGGUCAGGGUCAGCCCCAGCUGUGGCAGAGAAGACUCAAGUCUGGUGCCUGGCCUCUGCACUGUCUGGAGCAUGAUCAGAAUCCACGGUGUAUCCUGGCUUUAGGGG,1.41
CCUGGAACCAAACAUCAGAAUGCACACUAUUCUCCUAACAGUGAGCAUGGGGGGCAGGAGCCAGGGAGUCUAUUAGGUUCUAACCAACCUAGUUUUCAUUGUUGACAAGU,0.292
UGCUAGAUUCACCUCACCCCGGGCAGGAGUGGGGAUGUGGGCGCUCUGUGGUCCUCCCCUCCUGACCCAGGCCUCUGUGGCAUGCUGCAAGGAUCAGAGCCAGACACCAG,2.81
CAAACUGGUAUCUCUUGCUGAUGGACAGAGGGACACAGGUAGAGCAGCUAAGCUGAAAGUGCCCAGCAGGUGCAAAGGGGAAAAAGAACAAGGUUUGAGGAGGAAGUAGU,0.875
CAAAUACUAUUACUUCUCUGAGCCUCCGUUACGCCGUCUGUAAAAAGGGAGGUGAAAAUACCUACCUCACAGAACUGUUGGCUCAGAUGAGACGCUGUAUGUGUAAACAU,0.411

# Study 3
# Target: CCNB2, cyclin fold, Cln2 fusion (human)
# Method: yeast growth competition, sequencing
# Matrix: yeast
# Setting: strong parent motif
# Relative to: not given
# Reading: higher = stronger binding
# Parent: PKMYT1 docking peptide (human); SFEPRNLLSLFED
Variant,normalised enrichment score
F11Q,-0.399
D13E,1.7
N6D,-0.0982
P4E,-0.587
R5M,1.59
S1V,1.97
L10K,-0.312
N6H,-0.4

# Other studies, line by line
Molecule,target,assay,system,conditions,how to read,quantity,value
"PhoQ, residues 284 288 289 292 302 303 SNGLAW","PhoP, residues 12 14 15 18 19 AGCRL (Escherichia coli, UniProt P23836)","Sort-seq, measured: YFP reporter",E. coli,"PhoQ-PhoP variant library, added: 10 µM Mg2+","relative to: high Mg2+ state, higher = stronger signaling",fold induction,8.67

# For quick reference, copied from above (study 3):
Variant,normalised enrichment score
N6D,-0.0982
F11Q,-0.399
